Assay results collected from several papers.
Every numbered part comes from another study and shows a few of its results, in no order. Substitutions count along the parent as printed.

Sample 1 — target: CCNE1, cyclin fold, Cln2 fusion (human); method: yeast growth competition, sequencing; sample: yeast; setting: weak parent motif; relative to: not given; direction: higher = stronger binding
Parent: E2F7 docking peptide (human); SSAQRRLEIPSGG
Variant | normalised enrichment score
E8A | -0.383
S1A | 0.368
R5A L7A | 0.168
R5K I9F | 0.646
I9F | 2.07
P10A | 0.0434
I9A | 0.544
S11A | -0.136
R5K | -0.337
G12A | -0.36

Sample 2 — method: protein-binding microarray; form: double-stranded DNA, one strand shown; sample: in vitro; tested at: 250 nM; setting: 60-bp whole probe; added: salmon DNA 0.4 mg/ml; relative to: random background probes; direction: higher = stronger binding; all sequences stand within: GCCTAGCAC … GTCTTGATTCGCTTGACGCTGCTG
Target: Interferon regulatory factor 7, full length, phosphomimetic (IRF7, Homo sapiens, UniProt Q92985, residues 1-503, S101K/S471D/S472D/S475D/S476D/S477D/S483D/S484D/S487D)
Target sequence (chain): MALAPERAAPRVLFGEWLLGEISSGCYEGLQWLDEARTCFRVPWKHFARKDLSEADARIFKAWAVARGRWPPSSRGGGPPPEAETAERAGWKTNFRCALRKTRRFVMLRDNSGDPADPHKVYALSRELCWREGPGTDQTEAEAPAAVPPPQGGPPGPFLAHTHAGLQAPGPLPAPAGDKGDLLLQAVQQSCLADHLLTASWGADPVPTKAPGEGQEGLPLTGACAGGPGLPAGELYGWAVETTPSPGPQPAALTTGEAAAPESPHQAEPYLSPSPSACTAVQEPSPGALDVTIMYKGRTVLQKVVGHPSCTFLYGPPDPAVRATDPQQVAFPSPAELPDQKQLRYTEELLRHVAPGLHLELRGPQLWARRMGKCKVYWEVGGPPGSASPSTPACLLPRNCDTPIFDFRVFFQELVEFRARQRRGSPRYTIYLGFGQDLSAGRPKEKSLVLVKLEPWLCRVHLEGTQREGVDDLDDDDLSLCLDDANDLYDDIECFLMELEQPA
Sequence | log fluorescence [z-score]
TTAGGTCTCCTACAGCTTTAGTGCTAG | -0.291
GACGGTTTAGGACTGGGGACGTGCTAG | 0.118
TTAGGTTCCGGTGTCGGTTAGTGCTAG | 1.02
GACCGTATCGGGTATCGGGACGTGCTA | 0.623
TTTTTTTTCATCATTGCCTAGTGCTAG | 1.57
TCAACTTTCTTAATGCTACTGTGCTAG | 0.627
TTATGTCTCGGTTTCGGTTAGTGCTAG | 9.92
GAGGAACTGGGGTATCGAGACGTGCTA | -0.494
GACGATCACAGTTTCGAGACGTGCTAG | 3.75
TTAGGTATCGGTAACGGTTAGTGCTAG | 0.392
GGAGGCTCTTGCTACTGAAGGTGCTAG | -1.4
ACTCGTTTACATTTTCCAAAGTGCTAG | 1.86
AAGTGTTTGGTGTCTTTTGTGGTGCTA | -0.452
GACGATTTCGGGTATCGAGAGGTGCTA | 0.851
TTAGGGCTGGGGTATCGGTTAGTGCTA | -0.264
AGCAGGGCTGATGCTCCCCTGTGCTAG | -1.25
GACGGACTGCTTAGCCTGACGTGCTAG | -0.592
TTAGAACTGGGTACTGGATTAGTGCTA | -0.238

Sample 3 — method: RNAcompete; form: RNA; sample: in vitro; tested at: 20 nM; setting: 7-mer, probes averaged, single round; relative to: mean of 7-mers; direction: higher = stronger binding
Target: PABPC1L2, full length, GST fusion (mouse, UniProt A0ABA7IW68)
Construct (chain): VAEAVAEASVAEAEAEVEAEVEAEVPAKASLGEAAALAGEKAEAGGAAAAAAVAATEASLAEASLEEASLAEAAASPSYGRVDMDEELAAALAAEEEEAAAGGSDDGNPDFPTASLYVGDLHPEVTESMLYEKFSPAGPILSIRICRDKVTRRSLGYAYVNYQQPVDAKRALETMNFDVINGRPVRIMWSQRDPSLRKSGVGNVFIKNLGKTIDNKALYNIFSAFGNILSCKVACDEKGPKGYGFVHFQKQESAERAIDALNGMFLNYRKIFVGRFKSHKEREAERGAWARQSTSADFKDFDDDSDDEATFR
Sequence | 7-mer Z-score
AUCUGAU | -0.0953
GUUAGAC | -0.249
UACAACG | 0.00617
UGGUCUA | -0.335
UACUUUG | -0.26
GGUUUCA | -0.311
CUGCGGA | 0.0243
UAUGACU | -0.103
CACUGUU | -0.383
GUAGAGG | 0.0895
AUUAACC | -0.0663
GAGUUAG | -0.195
CUAUGAA | -0.0482

Further values, each from its own experiment
Substance | target | assay | test system | conditions | how to read | endpoint | result
PhoQ, residues 284 288 289 292 302 303 SVTLVV | PhoP, residues 12 14 15 18 19 LYFRQ (Escherichia coli, UniProt P23836) | Sort-seq, refers to: YFP reporter | E. coli | PhoQ-PhoP variant library, added: 10 µM Mg2+ | relative to: high Mg2+ state, higher = stronger signaling | fold induction | 2.99

A few entries again (sample 1):
Variant | normalised enrichment score
S11A | -0.136
R5K | -0.337
G12A | -0.36
